Measurements from different studies.
Compare with care: the assays were run in different laboratories. Several values in a cell are separate wells, animals, samples, runs or records. Numbers after ± are the reported error.

| SMILES | cell line | assay | system | conditions | scale | measurement | value |
| --- | --- | --- | --- | --- | --- | --- | --- |
| C/C=C(/C)C(=O)O[C@H]1C(C)=C2[C@H]([C@@H]1OC(=O)CCCCCCC)[C@@](C)(OC(C)=O)C[C@H](OC(=O)CCC)[C@@]1(O)[C@H]2OC(=O)[C@@]1(C)O | HEK-293T | RNA-seq GSEA, refers to: Hallmark MYC targets V1 | – | 500 nM, 6 h | direction not given | normalized enrichment score | 0.91 |
| O=C1CCP(=S)(c2ccccc2)CC1 | SW480 | annexin V/PI flow cytometry | – | IC50, 72 h | – | early apoptotic cells | 0.9% |
| Cn1nccc1Nc1nccc(-c2cc3c(s2)C(C)(C)N(CCN2CCOCC2)C3=O)n1 | HCT116 | IncuCyte | – | concentration not given, 4 (unit not given) | – | PI-positive cells | 4.33 count and 2.5 count and 4 count |
| COc1cc(CCC[P+](c2ccccc2)(c2ccccc2)c2ccccc2)c(OC)c2c1OCO2.[I-] | NCI-H460 | SRB | – | – | – | TGI | -5.25 log M |
| CC(C)N1CCC(NC2CCN(c3cccc(-c4cc5cc(F)ccc5[nH]4)c3)CC2)CC1 | SF-268 | – | – | – | – | CC50 | 6.04 µM |
| O=S(=O)(c1ccc(O)cc1)c1ccc(O)cc1 | HepG2 spheroids | Hoechst flow cytometry | – | 40 µM, 24 h | – | S phase cells | 7.58 ± 1.58% |
| Cc1cnc2ccc3c(nc(N)n3C)c2n1 | BALB/c 3T3 | – | – | 0.1 µM | baseline: solvent control | relative colony forming efficiency | 100 ± 6% |
| O=C1N(Cc2ccccc2Cl)c2ccccc2C12NN=C(c1ccccc1)S2 (centres unmarked) | MDA-MB-468 | gene array, refers to: SNX11 | – | 10 µM, 12 h | baseline: untreated | mRNA fold change | 1.53 |
| CC1(C)CN(CCCCC(=O)N[C@H](Cc2ccc(O)c(I)c2)C(=O)N[C@H](Cc2ccccc2)C(=O)N[C@H](CCCCNC(=O)CCCCCCC(=O)NCCCC[C@H](NC(=O)N[C@@H](CCC(=O)O)C(=O)O)C(=O)O)C(=O)O)CC[N]2CC(C)(C)[S][Tc]2(=[O])[S]1 (some centres unmarked) [technetium-99m labelled] | LNCaP | – | – | 25 nM, 1 h, 37 °C | – | surface-bound activity | 3.29 ± 0.72 %AD/mg protein |
| Oc1cc(Cl)ccc1Oc1ccc(Cl)cc1Cl | HepG2 | high content imaging, refers to: nuclear size | – | 24 h, distribution mode 2 | – | point of departure | 32.4 µM and 33.1 µM |
| COc1ccc([C@H]2c3[nH]c4ccc(Cl)cc4c3CCN2C(=O)Oc2ccc(Cl)cc2)cc1 | HUVEC and PBMC co-culture | BioMAP SAg, refers to: MCP-1 | – | 0.1 µM, 24 h, together with: TCR ligands | – | inhibition | 45% |
| CN1CC[C@@]2(C)c3cc(OC(=O)Nc4ccccc4)ccc3N(C)[C@@H]12 | mouse primary cortical neurons | Western blot | – | up to 1 µM | – | α-synuclein protein decrease | ≤ 70% |
| Cc1cc(C(C)(C)c2ccc(O)c(C)c2)ccc1O | HepG2 spheroids | Hoechst flow cytometry | – | 10 µM, 96 h | – | G2 phase cells | 23 ± 4.31% |
| CNC(=O)Oc1cccc2ccccc12 | SH-SY5Y | neurite outgrowth inhibition, phase-contrast imaging | – | freely dissolved concentration | – | EC10 | 28.7 nM |
| CN1CCc2cc3c(cc2[C@H]1[C@@H]1OC(=O)c2c1ccc1c2OCO1)OCO3 | hiPSC glutamatergic neurons | burst frequency, multi-electrode array | – | 2 h | – | lowest effective concentration | 100 µM |
| COc1ccc([C@@H](O)c2cc(-c3ncnc4cc(N5CCOCC5)ccc34)c(F)cc2Cl)nn1 | M12 | – | – | 300 nM, together with: radiation 2.5 Gy | – | clonogenic survival | 4 ± 0.4% |

| SMILES | cell line | assay | system | conditions | scale | measurement | value |
| --- | --- | --- | --- | --- | --- | --- | --- |
| CCN(CC)c1ccc(C=NNC(=O)CSc2nc3ccccc3c(=O)n2Cc2ccc(S(N)(=O)=O)cc2)c(O)c1 | OVCAR-8 | NCI five-dose screen | – | – | – | CC50 | > 100 µM |
| COc1c(CCC[P+](c2ccccc2)(c2ccccc2)c2ccccc2)cc2c(c1OC)OCO2.[I-] | OVCAR-8 | SRB | – | – | – | LC50 | > -4 log M |
| O=C1NC(=O)N(CCc2ccc(F)cc2)C(=O)/C1=C/C=C/c1ccccc1 | LDR | silenced CMV-GFP reporter derepression, qHTS | – | – | – | efficacy | 41% |
| Cc1nn(-c2nc3c(F)cc(F)cc3s2)c(O)c1C(c1ccc(C(F)(F)F)cc1)c1c(C)nn(-c2nc3c(F)cc(F)cc3s2)c1O | RAW-ISG | CCK-8 | – | 12.5 µM | – | viability | 104% and 103% and 106% and 99.5% and 93.9% |
| COc1c(C)c2c(c(O)c1C/C=C(\C)CCC(=O)O)C(=O)OC2 | Panc1005 | cell proliferation | pancreas cancer | – | – | IC50 | 724 nM |
| COc1ccc2c(c1)[nH]c1c(C)nccc12 | DU-145 | bisulfite pyrosequencing, refers to: RASSF1A promoter CpG site 6 | – | concentration not given | baseline: vehicle | methylation reduction | 0.05% |
| O=c1c(O)c(-c2ccc(O)c(O)c2)oc2cc(O)cc(O)c12 | SH-SY5Y Aβ-GFP cells, TRKB shRNA | – | – | 5 µM | – | neurite length | 27.4 to 31.1 µm |
| Oc1ccc(C2(c3ccc(O)cc3)c3ccccc3-c3ccccc32)cc1 | HepG2 spheroids | planimetry | – | 5 µM, 0 to 24 h | baseline: mean area of 72 h spheroids | spheroid area increase | 126% |
| C[C@]12CC[C@H]3[C@@H](CC[C@]4(O)C[C@@H](O)CC[C@]34C=O)[C@@]1(O)CC[C@@H]2C1=CC(=O)OC1 | MYBPC3 iPSC cardiomyocytes | plate-normalised | – | concentration not given, 24 h, hit retest | – | MyBP-C level | 14.6% |
| CN1CCN(C2(CNC3CCN(c4cccc(-c5cc6cc(F)ccc6[nH]5)c4)CC3)CCC2)CC1 | HT-29 | – | – | – | – | GI50 | 1040 nM |
| CC1=C2C[C@H]3[C@@H](CC[C@@H]4C[C@H](NS(C)(=O)=O)CC[C@@]43C)[C@@H]2CC[C@@]2(C1)O[C@@H]1C[C@H](C)CN[C@H]1[C@H]2C | HD-MB03 | – | – | together with: ribociclib 5 µM | baseline: ribociclib over DMSO | fold change in IC50 | 0.993 |
| Cn1cncc1C1=CN(c2ncnc3[nH]cnc23)CCS1 | SF-268 | – | – | CNS cancer | – | CC50 | 200 µM |
| C[C@@H]1O[C@@H](O[C@@H]2C=C3CC[C@@H]4[C@H](CC[C@]5(C)[C@@H](c6ccc(=O)oc6)CC[C@]45O)[C@@]3(C)CC2)[C@H](O)[C@H](O)[C@H]1O | MYBPC3 iPSC cardiomyocytes | plate-normalised | – | concentration not given, 24 h, hit retest | – | MyBP-C level | 11.3% |
| Nc1ncnc2c1ncn2[C@@H]1O[C@@H]2COP(=O)(O)O[C@H]3[C@@H](O)[C@H](n4cnc5c(=O)[nH]cnc54)O[C@@H]3COP(=O)(O)O[C@H]2[C@H]1O | HFF-1 | RNA sequencing, refers to: Reactome DDX58/IFIH1 negative regulators | – | upregulated pathways | baseline: mock | fold enrichment | 13.4 |
| O=c1cc(-c2ccccc2)oc2c(O)c(O)ccc12 | SH-SY5Y Aβ-GFP cells, scrambled shRNA | – | – | 5 µM | – | neurite branch number | 1.8 to 2.1 |
| Nc1ncc(-c2nc(N3CCOCC3)nc(N3CCOCC3)n2)c(C(F)F)n1 | J82 | – | – | 72 h | – | GI50 | 191 nM |

Excerpt of the above:
| SMILES | cell line | assay | system | conditions | scale | measurement | value |
| --- | --- | --- | --- | --- | --- | --- | --- |
| COc1ccc([C@@H](O)c2cc(-c3ncnc4cc(N5CCOCC5)ccc34)c(F)cc2Cl)nn1 | M12 | – | – | 300 nM, together with: radiation 2.5 Gy | – | clonogenic survival | 4 ± 0.4% |
| CCN(CC)c1ccc(C=NNC(=O)CSc2nc3ccccc3c(=O)n2Cc2ccc(S(N)(=O)=O)cc2)c(O)c1 | OVCAR-8 | NCI five-dose screen | – | – | – | CC50 | > 100 µM |
| COc1c(CCC[P+](c2ccccc2)(c2ccccc2)c2ccccc2)cc2c(c1OC)OCO2.[I-] | OVCAR-8 | SRB | – | – | – | LC50 | > -4 log M |
